Measured values collected from several papers.
Each numbered part is a random draw from the data of one study; scales do not carry over between parts. Values joined by “and” are separate records of one study, mostly repeats; a detail may differ.
UniProt P11712, sequence (whole entry, looked up): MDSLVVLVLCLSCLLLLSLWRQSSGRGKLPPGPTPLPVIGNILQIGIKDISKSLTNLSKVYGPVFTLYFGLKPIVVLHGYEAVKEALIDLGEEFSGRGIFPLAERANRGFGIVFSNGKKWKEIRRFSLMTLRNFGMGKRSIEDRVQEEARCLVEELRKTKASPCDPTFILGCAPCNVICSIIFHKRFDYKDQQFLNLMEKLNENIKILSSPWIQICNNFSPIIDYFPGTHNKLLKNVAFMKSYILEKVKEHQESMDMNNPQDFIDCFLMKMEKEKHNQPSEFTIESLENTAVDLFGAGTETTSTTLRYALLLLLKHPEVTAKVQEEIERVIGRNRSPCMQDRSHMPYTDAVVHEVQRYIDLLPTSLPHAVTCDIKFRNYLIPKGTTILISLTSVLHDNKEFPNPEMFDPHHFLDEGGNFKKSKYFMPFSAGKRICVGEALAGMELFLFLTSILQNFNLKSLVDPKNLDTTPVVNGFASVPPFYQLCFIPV
UniProt O94925, sequence (whole entry, looked up): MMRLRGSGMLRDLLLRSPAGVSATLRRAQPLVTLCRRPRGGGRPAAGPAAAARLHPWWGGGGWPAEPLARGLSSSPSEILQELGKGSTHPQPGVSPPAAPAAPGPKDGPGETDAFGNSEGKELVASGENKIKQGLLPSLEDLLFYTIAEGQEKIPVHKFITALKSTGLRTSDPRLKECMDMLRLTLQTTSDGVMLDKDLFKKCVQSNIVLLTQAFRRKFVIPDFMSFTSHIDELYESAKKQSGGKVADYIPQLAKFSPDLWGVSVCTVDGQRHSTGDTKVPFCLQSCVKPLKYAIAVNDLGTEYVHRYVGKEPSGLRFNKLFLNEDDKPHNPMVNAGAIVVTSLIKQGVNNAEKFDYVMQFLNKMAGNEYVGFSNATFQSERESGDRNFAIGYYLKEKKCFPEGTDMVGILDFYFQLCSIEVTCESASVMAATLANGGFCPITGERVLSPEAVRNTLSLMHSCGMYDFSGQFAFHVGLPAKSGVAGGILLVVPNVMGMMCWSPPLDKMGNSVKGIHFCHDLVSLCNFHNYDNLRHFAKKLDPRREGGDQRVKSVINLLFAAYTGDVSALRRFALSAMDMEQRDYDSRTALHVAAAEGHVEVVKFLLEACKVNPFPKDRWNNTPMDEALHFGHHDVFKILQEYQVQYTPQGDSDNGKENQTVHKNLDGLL
UniProt Q12809, sequence (whole entry, looked up): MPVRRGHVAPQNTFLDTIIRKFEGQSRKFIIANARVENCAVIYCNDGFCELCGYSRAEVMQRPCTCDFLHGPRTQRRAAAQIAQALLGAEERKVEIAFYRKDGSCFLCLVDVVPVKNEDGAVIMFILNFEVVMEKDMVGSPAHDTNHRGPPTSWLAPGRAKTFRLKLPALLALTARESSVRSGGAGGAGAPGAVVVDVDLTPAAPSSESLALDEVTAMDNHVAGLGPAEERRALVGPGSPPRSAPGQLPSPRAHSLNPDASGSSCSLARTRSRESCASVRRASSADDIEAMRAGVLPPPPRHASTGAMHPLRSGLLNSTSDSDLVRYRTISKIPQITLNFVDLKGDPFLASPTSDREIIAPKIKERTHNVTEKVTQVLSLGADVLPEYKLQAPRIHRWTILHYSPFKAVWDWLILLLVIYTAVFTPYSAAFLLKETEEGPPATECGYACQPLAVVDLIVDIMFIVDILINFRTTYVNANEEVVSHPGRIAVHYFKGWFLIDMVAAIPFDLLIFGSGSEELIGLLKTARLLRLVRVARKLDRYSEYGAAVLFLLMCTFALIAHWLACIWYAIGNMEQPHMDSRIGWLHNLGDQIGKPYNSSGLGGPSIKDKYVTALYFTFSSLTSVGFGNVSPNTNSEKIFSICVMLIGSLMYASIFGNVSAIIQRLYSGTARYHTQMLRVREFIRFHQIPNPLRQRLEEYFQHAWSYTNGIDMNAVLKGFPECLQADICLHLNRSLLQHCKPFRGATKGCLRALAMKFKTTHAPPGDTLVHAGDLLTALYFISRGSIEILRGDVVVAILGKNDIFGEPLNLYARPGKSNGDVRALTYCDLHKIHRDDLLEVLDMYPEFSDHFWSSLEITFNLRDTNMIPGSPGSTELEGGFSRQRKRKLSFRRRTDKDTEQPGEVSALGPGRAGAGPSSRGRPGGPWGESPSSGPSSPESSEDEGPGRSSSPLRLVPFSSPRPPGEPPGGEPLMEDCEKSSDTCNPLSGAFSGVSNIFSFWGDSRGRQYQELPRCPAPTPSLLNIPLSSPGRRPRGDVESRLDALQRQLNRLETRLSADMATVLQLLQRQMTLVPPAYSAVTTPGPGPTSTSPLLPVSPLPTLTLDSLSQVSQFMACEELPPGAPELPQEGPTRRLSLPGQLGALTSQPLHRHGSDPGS
UniProt P33261, sequence (whole entry, looked up): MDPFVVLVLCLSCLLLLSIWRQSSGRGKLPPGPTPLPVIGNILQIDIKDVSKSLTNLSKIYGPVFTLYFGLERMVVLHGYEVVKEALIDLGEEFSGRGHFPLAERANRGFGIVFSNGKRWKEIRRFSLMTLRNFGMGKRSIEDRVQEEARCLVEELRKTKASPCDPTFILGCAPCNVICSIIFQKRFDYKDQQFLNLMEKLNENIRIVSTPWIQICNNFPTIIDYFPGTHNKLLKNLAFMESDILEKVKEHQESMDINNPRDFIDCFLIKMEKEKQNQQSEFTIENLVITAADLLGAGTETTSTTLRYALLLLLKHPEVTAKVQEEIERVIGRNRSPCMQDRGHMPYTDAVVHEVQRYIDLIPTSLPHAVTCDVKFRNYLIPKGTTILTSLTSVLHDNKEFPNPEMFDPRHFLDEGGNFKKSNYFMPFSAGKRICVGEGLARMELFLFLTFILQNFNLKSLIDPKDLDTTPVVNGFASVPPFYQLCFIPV
UniProt P10632, sequence (whole entry, looked up): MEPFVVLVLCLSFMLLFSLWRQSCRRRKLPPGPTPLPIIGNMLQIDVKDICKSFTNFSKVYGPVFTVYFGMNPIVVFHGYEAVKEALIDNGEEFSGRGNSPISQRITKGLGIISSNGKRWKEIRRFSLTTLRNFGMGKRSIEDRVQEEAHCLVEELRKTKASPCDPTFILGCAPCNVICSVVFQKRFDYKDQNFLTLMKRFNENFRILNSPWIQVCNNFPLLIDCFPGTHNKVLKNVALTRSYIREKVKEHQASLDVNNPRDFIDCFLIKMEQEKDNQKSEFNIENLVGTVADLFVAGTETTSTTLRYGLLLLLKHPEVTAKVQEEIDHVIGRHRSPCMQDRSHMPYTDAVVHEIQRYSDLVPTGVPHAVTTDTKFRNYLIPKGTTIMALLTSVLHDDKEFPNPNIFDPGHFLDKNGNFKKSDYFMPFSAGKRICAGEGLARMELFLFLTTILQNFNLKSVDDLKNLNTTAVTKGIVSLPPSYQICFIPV
UniProt P05177, sequence (whole entry, looked up): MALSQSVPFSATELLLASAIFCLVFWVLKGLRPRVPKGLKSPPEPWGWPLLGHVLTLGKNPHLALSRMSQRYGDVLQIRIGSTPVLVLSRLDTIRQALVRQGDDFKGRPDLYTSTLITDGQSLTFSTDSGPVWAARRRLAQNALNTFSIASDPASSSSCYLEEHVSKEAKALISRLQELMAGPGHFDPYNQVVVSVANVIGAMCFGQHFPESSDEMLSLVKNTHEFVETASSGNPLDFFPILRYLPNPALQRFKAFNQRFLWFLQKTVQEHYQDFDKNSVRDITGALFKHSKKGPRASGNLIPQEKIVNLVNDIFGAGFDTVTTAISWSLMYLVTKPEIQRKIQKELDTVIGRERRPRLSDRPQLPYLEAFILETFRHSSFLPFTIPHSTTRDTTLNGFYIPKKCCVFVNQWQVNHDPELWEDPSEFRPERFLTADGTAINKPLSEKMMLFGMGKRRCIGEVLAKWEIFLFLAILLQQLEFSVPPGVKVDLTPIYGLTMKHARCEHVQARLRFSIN
UniProt P10635, sequence (whole entry, looked up): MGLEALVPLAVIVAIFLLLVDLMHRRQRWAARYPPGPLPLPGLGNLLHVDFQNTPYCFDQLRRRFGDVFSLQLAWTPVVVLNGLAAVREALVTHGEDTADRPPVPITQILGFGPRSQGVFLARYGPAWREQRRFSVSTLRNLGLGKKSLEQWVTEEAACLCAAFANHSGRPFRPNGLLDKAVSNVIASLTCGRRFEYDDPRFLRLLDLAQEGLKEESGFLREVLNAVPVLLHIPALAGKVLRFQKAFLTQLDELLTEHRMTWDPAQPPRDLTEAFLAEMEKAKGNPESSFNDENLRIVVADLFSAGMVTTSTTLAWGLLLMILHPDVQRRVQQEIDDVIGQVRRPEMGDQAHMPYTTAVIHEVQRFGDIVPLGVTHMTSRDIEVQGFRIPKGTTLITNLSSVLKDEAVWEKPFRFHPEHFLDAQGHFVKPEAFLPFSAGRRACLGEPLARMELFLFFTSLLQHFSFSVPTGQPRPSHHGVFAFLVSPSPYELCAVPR

Block 1
Structure (SMILES): CC[C@@]1(c2cccc(C(F)(F)F)c2)C2=C(Nc3n[nH]cc31)[C@H](F)C(C)(C)CC2=O (single isomer, unassigned)
Mode: inhibitor
The IC50 was over 10 µM (Cytochrome P450 1A2 (CYP1A2, Homo sapiens, UniProt P05177); enzyme activity).
The IC50 was over 10 µM (Cytochrome P450 2D6 (CYP2D6, Homo sapiens, UniProt P10635); enzyme activity).
For KCNH2 (Homo sapiens, UniProt Q12809); ion current: IC50 read over 30 µM.
The IC50 was over 10 µM (CYP2C19 (Homo sapiens, UniProt P33261); enzyme activity).
The IC50 was 9.75 µM (Cytochrome P450 2C9 (CYP2C9, Homo sapiens, UniProt P11712); enzyme activity).
For Cytochrome P450 2C8 (CYP2C8, Homo sapiens, UniProt P10632); enzyme activity: IC50 read over 10 µM.

Other studies, line by line
KRAS G12D GDP-bound: GTPase KRas, GDP-bound (KRAS, Homo sapiens, UniProt P01116, G12D)
`Cc1ncsc1-c1ccc(C(CO)NC(=O)C2CC(O)CN2C(=O)C(NC(=O)c2ccc(COc3c(-c4c(C)c(F)cc5[nH]ncc45)c(C4CC4)cc4c(N5CC6CC5CN6)nc(OC5CCOCC5)nc34)cc2)C(C)C)cc1` (stereo not shown): “dissociation rate constant (kd)” 0.00789 s⁻¹ and 0.00693 s⁻¹ and 0.00915 s⁻¹ (KRAS G12D GDP-bound; binder, single-cycle SPR; binary, without VCB).
With `CC(=O)N[C@@H](Cc1c[nH]c2ccccc12)C(=O)N[C@@H](CCC(=O)C=[N+]=[N-])C(N)=O` the remaining compound was over 50% (C57BL/6 CES1-/- mouse GI homogenate; 1 h, 37 °C).
`Cc1ncsc1-c1ccc(C(CO)NC(=O)C2CC(O)CN2C(=O)C(C(C)C)n2cc(-c3ccc(COc4c(-c5c(C)c(F)cc6[nH]ncc56)c(C5CC5)cc5c(N6CC7CC6CN7)nc(OC6CCOCC6)nc45)cc3)nn2)cc1` (stereo not shown) has a Kd of 0.00716 µM and 0.0102 µM and 0.00565 µM (von Hippel-Lindau disease tumor suppressor, with Elongin B/C (VHL, Homo sapiens, UniProt P40337); SPR, single-cycle; immobilized VCB complex; binary).
With `CC(=O)NC(Cc1c[nH]c2ccccc12)C(=O)NC(CCC(=O)C=[N+]=[N-])C(=O)O` (stereo not shown) the IC50 was over 1000 µM (GLS (Homo sapiens, UniProt O94925); enzyme activity, inhibitor, radiometric).
With `Cc1ncsc1-c1ccc(C2(NC(=O)C3CC(O)CN3C(=O)C(NC(=O)c3ccc(COc4c(-c5c(C)c(F)cc6[nH]ncc56)c(C5CC5)cc5c(N6CC7CC6CN7)nc(OC6CCOCC6)nc45)cc3)C(C)C)CC2)cc1` (stereo not shown) the koff was 0.00943 s⁻¹ (KRAS G12D GDP-bound; SPR, single-cycle; immobilized KRAS G12D; binary, geometric mean).
For `Cn1cc(-c2cccc(CN3CCC4(CC3)COc3c4ccc4c3CN([C@H]3CCC(=O)NC3=O)C4=O)c2)cn1`, “maximum unbound thymus concentration” read about 8.4 nM (mouse Crbn I391V; oral, 30 mg/kg).
The viability of `CCN1CCN(Cc2ccc(COc3c(-c4c(C)c(F)cc5[nH]ncc45)c(C4CC4)cc4c(N5C[C@@H]6C[C@H]5CN6)nc(OC5CCOCC5)nc34)cc2)C(=O)C1` is reported as 0.3% and 0.1% (A-375 (KRAS wild type); CellTiter-Glo; 10 µM, 6 days; baseline: DMSO).

Excerpt of the above (other studies, line by line):
`Cc1ncsc1-c1ccc(C(CO)NC(=O)C2CC(O)CN2C(=O)C(C(C)C)n2cc(-c3ccc(COc4c(-c5c(C)c(F)cc6[nH]ncc56)c(C5CC5)cc5c(N6CC7CC6CN7)nc(OC6CCOCC6)nc45)cc3)nn2)cc1` (stereo not shown) has a Kd of 0.00716 µM and 0.0102 µM and 0.00565 µM (von Hippel-Lindau disease tumor suppressor, with Elongin B/C (VHL, Homo sapiens, UniProt P40337); SPR, single-cycle; immobilized VCB complex; binary).
With `CC(=O)NC(Cc1c[nH]c2ccccc12)C(=O)NC(CCC(=O)C=[N+]=[N-])C(=O)O` (stereo not shown) the IC50 was over 1000 µM (GLS (Homo sapiens, UniProt O94925); enzyme activity, inhibitor, radiometric).
